Results collected from several papers.
Lines come from different studies, so protocols differ.
Organism: Klebsiella pneumoniae

N=C(N)c1ccc(OCc2ccc(Br)cc2COc2ccc(C(=N)N)cc2)cc1
MIC (ATCC 13883; compound alone): > 200 µg/mL

C[C@@H](O)[C@H]1C(=O)N2C(C(=O)O)=C(S[C@@H]3CN[C@H](C(=O)N(C)C)C3)[C@H](C)[C@H]12
MIC (ALE CTX-M-15, Mueller Hinton broth; overnight, 37 °C): > 512 µg/mL

C[C@@H](O)[C@H]1C(=O)N2C(C(=O)O)=C(S[C@@H]3CN[C@H](C(=O)N(C)C)C3)[C@H](C)[C@H]12
MIC (broth microdilution; KP; 18 h): 0.031 µg/mL

O=C(Cc1ccccc1)N[C@@H]1C(=O)N2C(C(=O)O)=C(CSc3cccc4cccnc34)C[S+]([O-])[C@H]12 (stereo partly drawn)
MIC (N11-2218): > 128 µg/mL

Cc1c(CN(C)C(=O)/C=C/c2cnc3c(c2)CC(CCN)C(=O)N3)oc2ccccc12.Cl (stereo not drawn)
MIC (broth microdilution; AR-0347): 8 µg/mL

C[C@@H](O)[C@H]1C(=O)N2C(C(=O)O)=C(SCCN=CN)C[C@H]12
MIC (broth microdilution, MH medium; NCCP 16054; 16 h, 37 °C, growth inhibition over 99%): 0.5 µM

CO/N=C(\C(=O)N[C@@H]1C(=O)N2C(C(=O)O)=C(CSc3nc(=O)c(=O)[nH]n3C)CS[C@H]12)c1csc(N)n1
MIC (DOU CTX-M-15, Mueller Hinton broth; overnight, 37 °C): > 512 µg/mL

COc1ccccc1CNc1ccc(C(=O)O)cc1
MIC (broth microdilution): 64 µg/mL

CNC(C)C1CCC(N)C(OC2C(N)CC(N)C(OC3OCC(C)(O)C(NC)C3O)C2O)O1 (stereo not drawn)
MIC (broth microdilution; BNCC 359393): > 64 µg/mL

NC[C@H]1O[C@H](O[C@H]2[C@H](O)[C@@H](O[C@H]3O[C@H](CO)[C@@H](O)[C@H](N)[C@H]3O)[C@H](N)C[C@@H]2N)[C@H](N)C[C@@H]1O
MIC (broth microdilution; NCTC 13438; 24 h, 5% CO2): 32 µg/mL

Cc1c(CN(C)C(=O)/C=C/c2cnc3c(c2)CC(NC(=O)OC(C)(C)C)C(=O)N3)oc2ccccc12 (stereo not drawn)
MIC (broth microdilution; AR-0141): > 32 µg/mL

CNC(C)C1CCC(N)C(OC2C(N)CC(N)C(OC3OCC(C)(O)C(NC)C3O)C2O)O1 (stereo not drawn)
MIC (9904, RPMI 1640 10% FBS; 18 to 24 h, 37 °C): 12.5 µM

COc1cc(CNc2ccc(C(=O)O)cc2)ccc1O
MIC (broth microdilution): 64 µg/mL

CN[C@@H]1[C@@H](O[C@H]2O[C@H](CO)[C@@H](N)[C@H](O)[C@H]2O)OC2C[C@@H](N)[C@@H](O[C@H]3[C@H](O)[C@@H](O)[C@H](N)C[C@@H]3N)OC2[C@@H]1O (stereo partly drawn)
MIC (broth microdilution; NCTC 13438; 24 h, ambient air): 4 µg/mL

O=C(O)[C@H]1/C(=C/CO)O[C@@H]2CC(=O)N21
MIC (ATCC 700603 ESBL; compound alone): 64 µg/mL

O=[N+]([O-])c1ccc2[nH]c(CNCC34CC5CC(CC(C5)C3)C4)nc2c1
MIC (ATCC 700603): > 128 µg/mL

CN(C)c1cc(NC(=O)CNC(C)(C)C)c(O)c2c1C[C@H]1C[C@H]3[C@H](N(C)C)C(O)=C(C(N)=O)C(=O)[C@@]3(O)C(O)=C1C2=O
MIC (broth microdilution; ATCC 43816 acrAB knockout): < 0.5 µg/mL

C[C@@H](O)[C@H]1C(=O)N2C(C(=O)O)=C(SCCN=CN)C[C@H]12
MIC (broth microdilution; NCTC 13438; 24 h, ambient air): 128 µg/mL
